Measured values from different studies.
Every numbered part comes from another study and shows a few of its results, in no order.
Sequence of UniProt P52333 (whole entry, looked up): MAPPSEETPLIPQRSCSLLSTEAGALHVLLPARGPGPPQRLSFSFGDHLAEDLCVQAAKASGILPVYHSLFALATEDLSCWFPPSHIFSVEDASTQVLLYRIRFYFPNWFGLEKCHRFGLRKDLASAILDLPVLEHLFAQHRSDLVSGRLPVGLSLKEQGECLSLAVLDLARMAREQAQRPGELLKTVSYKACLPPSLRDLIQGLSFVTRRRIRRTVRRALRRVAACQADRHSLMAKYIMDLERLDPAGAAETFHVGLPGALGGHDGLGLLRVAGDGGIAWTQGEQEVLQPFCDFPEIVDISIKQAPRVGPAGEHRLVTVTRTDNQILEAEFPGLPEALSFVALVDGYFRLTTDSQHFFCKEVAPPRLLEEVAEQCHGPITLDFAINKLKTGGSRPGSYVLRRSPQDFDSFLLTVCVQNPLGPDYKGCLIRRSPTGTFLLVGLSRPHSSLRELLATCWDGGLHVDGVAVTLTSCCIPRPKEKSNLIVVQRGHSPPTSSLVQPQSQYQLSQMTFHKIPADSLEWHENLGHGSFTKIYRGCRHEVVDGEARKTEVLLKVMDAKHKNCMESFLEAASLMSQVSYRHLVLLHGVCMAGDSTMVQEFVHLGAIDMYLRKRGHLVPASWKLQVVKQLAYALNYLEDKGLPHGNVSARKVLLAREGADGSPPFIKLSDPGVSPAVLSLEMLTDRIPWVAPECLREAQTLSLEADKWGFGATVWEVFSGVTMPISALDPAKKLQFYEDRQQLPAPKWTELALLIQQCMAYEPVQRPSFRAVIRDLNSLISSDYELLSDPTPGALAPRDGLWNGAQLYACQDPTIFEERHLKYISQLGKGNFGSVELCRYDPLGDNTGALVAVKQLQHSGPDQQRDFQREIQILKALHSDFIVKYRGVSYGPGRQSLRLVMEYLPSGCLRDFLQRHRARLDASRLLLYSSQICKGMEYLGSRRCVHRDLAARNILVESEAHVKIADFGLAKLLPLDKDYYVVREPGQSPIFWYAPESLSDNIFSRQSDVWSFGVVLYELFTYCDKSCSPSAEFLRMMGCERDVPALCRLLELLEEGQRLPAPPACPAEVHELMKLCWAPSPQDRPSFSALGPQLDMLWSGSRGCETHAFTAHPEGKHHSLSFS
Sequence of UniProt P54764 (whole entry, looked up): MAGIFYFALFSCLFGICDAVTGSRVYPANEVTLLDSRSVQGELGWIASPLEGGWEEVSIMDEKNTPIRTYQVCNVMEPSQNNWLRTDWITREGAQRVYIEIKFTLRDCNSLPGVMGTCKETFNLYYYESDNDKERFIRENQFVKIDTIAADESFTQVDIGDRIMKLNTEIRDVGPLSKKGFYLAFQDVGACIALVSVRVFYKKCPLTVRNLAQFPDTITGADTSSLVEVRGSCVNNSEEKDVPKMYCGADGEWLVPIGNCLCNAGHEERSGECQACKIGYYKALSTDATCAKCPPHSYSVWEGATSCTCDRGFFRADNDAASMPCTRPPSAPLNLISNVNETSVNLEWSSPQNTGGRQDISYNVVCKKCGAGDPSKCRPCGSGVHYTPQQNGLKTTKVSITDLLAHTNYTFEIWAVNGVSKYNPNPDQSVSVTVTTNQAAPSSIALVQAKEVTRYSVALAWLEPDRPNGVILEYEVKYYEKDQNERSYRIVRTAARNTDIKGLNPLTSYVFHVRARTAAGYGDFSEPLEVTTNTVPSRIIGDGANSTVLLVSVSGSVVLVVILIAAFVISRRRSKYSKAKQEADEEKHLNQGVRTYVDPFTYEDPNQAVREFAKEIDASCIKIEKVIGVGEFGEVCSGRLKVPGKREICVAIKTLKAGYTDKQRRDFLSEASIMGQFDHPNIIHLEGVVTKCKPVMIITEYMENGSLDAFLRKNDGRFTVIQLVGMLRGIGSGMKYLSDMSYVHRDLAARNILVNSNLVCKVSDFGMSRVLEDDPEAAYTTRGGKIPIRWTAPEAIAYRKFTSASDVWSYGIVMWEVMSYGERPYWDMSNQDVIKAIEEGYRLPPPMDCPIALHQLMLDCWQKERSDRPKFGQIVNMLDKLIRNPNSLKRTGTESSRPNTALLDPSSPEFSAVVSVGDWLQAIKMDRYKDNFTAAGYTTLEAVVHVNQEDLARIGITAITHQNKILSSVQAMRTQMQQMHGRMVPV
Sequence of UniProt P49841 (whole entry, looked up): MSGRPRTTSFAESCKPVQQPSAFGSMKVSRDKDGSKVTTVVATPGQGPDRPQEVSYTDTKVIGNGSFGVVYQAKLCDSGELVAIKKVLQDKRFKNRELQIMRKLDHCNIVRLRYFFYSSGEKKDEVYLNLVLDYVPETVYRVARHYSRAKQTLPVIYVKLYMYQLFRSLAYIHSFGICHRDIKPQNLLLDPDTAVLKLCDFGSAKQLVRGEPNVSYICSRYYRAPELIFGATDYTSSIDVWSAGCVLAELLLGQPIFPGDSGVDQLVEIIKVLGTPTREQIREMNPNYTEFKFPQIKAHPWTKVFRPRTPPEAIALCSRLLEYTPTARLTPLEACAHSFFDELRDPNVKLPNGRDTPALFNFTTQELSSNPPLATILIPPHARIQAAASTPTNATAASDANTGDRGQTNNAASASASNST
Sequence of UniProt Q9UL54 (whole entry, looked up): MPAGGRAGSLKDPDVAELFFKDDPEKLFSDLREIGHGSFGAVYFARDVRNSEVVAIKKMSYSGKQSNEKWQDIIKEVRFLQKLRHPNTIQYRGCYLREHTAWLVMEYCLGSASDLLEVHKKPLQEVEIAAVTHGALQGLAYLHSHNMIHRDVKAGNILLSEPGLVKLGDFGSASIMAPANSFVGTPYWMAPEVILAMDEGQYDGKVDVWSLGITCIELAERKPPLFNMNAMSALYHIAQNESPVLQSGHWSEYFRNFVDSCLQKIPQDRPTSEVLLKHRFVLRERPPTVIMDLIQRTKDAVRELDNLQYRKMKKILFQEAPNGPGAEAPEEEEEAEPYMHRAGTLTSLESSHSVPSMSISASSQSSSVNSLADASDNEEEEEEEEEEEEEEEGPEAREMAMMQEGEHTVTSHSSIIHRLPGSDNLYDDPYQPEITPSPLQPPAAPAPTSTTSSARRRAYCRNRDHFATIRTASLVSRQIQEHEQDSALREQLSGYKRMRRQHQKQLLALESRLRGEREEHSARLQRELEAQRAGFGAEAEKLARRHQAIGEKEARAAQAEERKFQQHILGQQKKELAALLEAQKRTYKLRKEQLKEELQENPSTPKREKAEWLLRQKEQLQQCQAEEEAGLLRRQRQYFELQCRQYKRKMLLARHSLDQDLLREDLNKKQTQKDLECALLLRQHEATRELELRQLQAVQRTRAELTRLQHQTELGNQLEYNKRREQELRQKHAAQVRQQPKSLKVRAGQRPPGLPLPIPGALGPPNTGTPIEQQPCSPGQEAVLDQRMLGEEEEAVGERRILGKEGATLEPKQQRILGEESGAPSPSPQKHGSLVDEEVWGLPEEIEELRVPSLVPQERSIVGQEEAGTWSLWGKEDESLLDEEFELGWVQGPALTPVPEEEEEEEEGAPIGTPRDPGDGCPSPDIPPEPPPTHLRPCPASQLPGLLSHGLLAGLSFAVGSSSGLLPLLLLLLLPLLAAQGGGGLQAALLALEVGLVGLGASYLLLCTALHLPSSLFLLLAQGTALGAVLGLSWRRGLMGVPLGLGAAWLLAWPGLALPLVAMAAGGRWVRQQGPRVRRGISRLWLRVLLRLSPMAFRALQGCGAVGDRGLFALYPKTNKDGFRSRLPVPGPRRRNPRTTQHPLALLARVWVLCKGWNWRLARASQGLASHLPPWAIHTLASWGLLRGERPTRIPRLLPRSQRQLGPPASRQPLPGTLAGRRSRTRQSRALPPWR

Study 1 — technique: RNAcompete; form: RNA; medium: in vitro; tested at: 20 nM; notes: 7-mer, probes averaged, single round; relative to: mean of 7-mers; direction: higher = stronger binding
Target: PABPC1L2, full length, GST fusion (mouse, UniProt A0ABA7IW68)
Residues (chain): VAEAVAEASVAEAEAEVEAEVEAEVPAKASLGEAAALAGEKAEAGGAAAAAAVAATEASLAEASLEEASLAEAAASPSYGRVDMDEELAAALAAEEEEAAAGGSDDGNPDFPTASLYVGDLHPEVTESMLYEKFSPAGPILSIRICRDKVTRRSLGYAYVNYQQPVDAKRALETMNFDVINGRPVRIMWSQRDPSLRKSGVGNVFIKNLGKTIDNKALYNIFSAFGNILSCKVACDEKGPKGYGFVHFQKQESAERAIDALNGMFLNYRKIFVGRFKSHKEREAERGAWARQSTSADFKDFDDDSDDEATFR
Strand | 7-mer Z-score
UUGCCGA | -0.197
ACCAUUC | -0.289
UAACUAC | -0.215
GCAGAUG | 0.00254
CUGAACU | -0.226
GUUAGCA | -0.166
CGUAGAC | -0.191
UACAUGG | -0.00652

Study 2 — observed: cell-free assay; technique: competition with immobilised ligand; tested at: 1 µM
Structure (SMILES): CCC(=O)N[C@H]1CC[C@@H](C(=O)N(C)c2ccc(-c3nc4ccccc4o3)cc2)C1
target | remaining binding [%]
Phosphatidylinositol 4,5-bisphosphate 3-kinase catalytic subunit beta isoform (PIK3CB, Homo sapiens, UniProt P42338) | 100
Receptor tyrosine-protein kinase erbB-3 (ERBB3, Homo sapiens, UniProt P21860) | 100
5'-AMP-activated protein kinase catalytic subunit alpha-2 (PRKAA2, Homo sapiens, UniProt P54646) | 88
Phosphatidylinositol 4-phosphate 3-kinase C2 domain-containing subunit beta (PIK3C2B, Homo sapiens, UniProt O00750) | 93
Ephrin type-A receptor 4 (EPHA4, Homo sapiens, UniProt P54764) | 79

Study 3 — SMILES: Nc1ncnc2c1cnn2-c1ccccc1; observed: enzyme activity; action: inhibitor; tested at: 0.5 µM; relative to: control
target | remaining activity [%]
Serine/threonine-protein kinase Nek6 (NEK6, Homo sapiens, UniProt Q9HC98) | 114
Serine/threonine-protein kinase Nek1 (NEK1, Homo sapiens, UniProt Q96PY6) | 62.4
Casein kinase I isoform gamma-3 (CSNK1G3, Homo sapiens, UniProt Q9Y6M4) | 93.4
Serine/threonine-protein kinase A-Raf (ARAF, Homo sapiens, UniProt P10398) | 99.3
Rhodopsin kinase GRK7 (GRK7, Homo sapiens, UniProt Q8WTQ7) | 100
Activin receptor type-1B (ACVR1B, Homo sapiens, UniProt P36896) | 99.4
Serine/threonine-protein kinase TAO2 (TAOK2, Homo sapiens, UniProt Q9UL54) | 93
Tyrosine-protein kinase JAK3 (JAK3, Homo sapiens, UniProt P52333) | 97.4
Tyrosine-protein kinase FRK (FRK, Homo sapiens, UniProt P42685) | 101
Glycogen synthase kinase-3 beta (GSK3B, Homo sapiens, UniProt P49841) | 91.6
Mitogen-activated protein kinase kinase kinase 14 (MAP3K14, Homo sapiens, UniProt Q99558) | 120
Mitogen-activated protein kinase kinase kinase 5 (MAP3K5, Homo sapiens, UniProt Q99683) | 100
Serine/threonine-protein kinase ULK3 (ULK3, Homo sapiens, UniProt Q6PHR2) | 98.9

Study 4 — technique: universal PBM; form: double-stranded DNA, one strand shown; medium: in vitro; tested at: 600 nM; direction: higher = stronger binding
Target: Sal-like protein 4, full length isoform A (SALL4, Homo sapiens, UniProt Q9UJQ4, residues 1-1053)
Sequence of UniProt Q9UJQ4 (whole entry, looked up): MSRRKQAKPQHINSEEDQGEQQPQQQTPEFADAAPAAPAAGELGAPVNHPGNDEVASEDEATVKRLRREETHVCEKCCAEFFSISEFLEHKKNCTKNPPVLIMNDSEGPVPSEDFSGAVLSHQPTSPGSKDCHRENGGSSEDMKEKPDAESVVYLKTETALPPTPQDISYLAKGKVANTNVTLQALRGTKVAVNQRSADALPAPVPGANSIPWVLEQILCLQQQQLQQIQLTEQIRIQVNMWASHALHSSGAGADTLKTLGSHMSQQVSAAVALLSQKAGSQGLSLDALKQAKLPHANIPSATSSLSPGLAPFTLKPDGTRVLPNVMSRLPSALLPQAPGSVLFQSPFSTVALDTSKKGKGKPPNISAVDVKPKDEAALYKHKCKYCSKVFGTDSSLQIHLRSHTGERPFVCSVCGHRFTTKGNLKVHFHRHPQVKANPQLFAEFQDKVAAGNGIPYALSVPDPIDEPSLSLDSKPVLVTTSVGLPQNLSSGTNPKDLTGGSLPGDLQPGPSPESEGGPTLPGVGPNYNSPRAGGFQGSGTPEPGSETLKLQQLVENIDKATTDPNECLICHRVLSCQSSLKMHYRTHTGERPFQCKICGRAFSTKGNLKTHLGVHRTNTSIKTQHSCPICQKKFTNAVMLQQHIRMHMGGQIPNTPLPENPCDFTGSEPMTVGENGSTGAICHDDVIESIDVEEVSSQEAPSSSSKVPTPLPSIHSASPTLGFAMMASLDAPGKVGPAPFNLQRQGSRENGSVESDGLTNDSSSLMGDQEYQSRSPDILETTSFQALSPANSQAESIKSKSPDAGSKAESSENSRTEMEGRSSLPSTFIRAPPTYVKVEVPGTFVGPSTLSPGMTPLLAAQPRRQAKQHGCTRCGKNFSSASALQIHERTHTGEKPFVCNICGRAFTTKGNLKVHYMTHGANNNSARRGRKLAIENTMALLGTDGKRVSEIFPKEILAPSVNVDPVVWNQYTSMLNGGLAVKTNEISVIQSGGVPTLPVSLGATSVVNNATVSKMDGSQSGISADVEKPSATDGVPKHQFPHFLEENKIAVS
Notes: 8-mer, flanks averaged, mean of replicates
Strand | E-score
ACATCAGC | -0.00874
GAGTTACC | -0.227
TCGTCCCA | -0.0876
ACATGATA | 0.321
CTAAGCCC | -0.29
TGACTGCA | -0.0528
CTCTCCGA | -0.225
GTGGAGCA | -0.072

For quick reference, copied from above (study 1):
Strand | 7-mer Z-score
ACCAUUC | -0.289
CGUAGAC | -0.191
